Published values gathered from unrelated publications.
A part holds a random share of what one study measured.

Study 1
Target: RNA binding protein fox-1 homolog 2, RRM domain, GST-SBP tag (RBFOX2, Homo sapiens, UniProt O43251-10, residues 100-194)
Method: RNA Bind-n-Seq
Molecule type: RNA
Medium: in vitro
Tested at: 365 nM
Setting: natural RNA segment, single round, ends assumed
Relative to: no-protein control
Reading: higher = stronger binding
Construct (chain): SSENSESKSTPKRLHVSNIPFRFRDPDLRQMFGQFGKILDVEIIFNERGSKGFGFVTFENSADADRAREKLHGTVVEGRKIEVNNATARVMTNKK
Under “RBNS enrichment (R)”, `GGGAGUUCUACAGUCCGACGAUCGAGGGAGAAUGAAUUGUCAUGAAAAAUUGGGGUUGAUUUUAUGUAUCUCUUGGGACAACUUUUAAAAGCUAUUUUUACCAAGUAUUUUGUAAAUGCUAAUUUUUUAGGACUGGAAUUCUCGGGUGCCAA` is recorded as 0.969.
Under “RBNS enrichment (R)”, `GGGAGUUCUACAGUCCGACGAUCGUCCCCAUCUGUCCUCUUGAUGUGAGAGAGACUCUGAGACUUCUUCCAUCGCAAUGACCUGUAUUAAACACAAGCCCCCCAAGCAAAAGAAGAGGUUGAGUUUGCUGCCAUGGAAUUCUCGGGUGCCAA` is recorded as 0.728.
Under “RBNS enrichment (R)”, `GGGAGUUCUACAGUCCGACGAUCCUGUUUUUAAGACACUUUGAUGUUUUUAUGGGGUGGUUGGUAACCUCUCAGCCUAGCCUCUCCUCACUCAUUUUCAACGCUGACCCUGACAGGAUCCACAGACUUCUCCAUGGAAUUCUCGGGUGCCAA` is recorded as 0.467.
For `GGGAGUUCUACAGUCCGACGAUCAAAGUUUUUAUCAUUGAAGACAAUAUUGAACAACCCCCUAUUUUGUGGGGAUUGAGAAGGGGUGAAUAGAGGCUUGAGACUUUCCUUUGUGUGGUAGGACUUGGAGGAGAUGGAAUUCUCGGGUGCCAA`, “RBNS enrichment (R)” read 1.3.
`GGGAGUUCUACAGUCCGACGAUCCAGUGCAUGCCCCACAGGGAGAAGCCUUCCUUCUCACCCAGGGAGUCCAGCCAUUUUCACCUCCCCUGGUCCAUGCUCAGGAAGUCUGGUCACCCUGGCAAACUGCACCUUGGAAUUCUCGGGUGCCAA`: “RBNS enrichment (R)” 1.78.
`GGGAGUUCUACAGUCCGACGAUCAGAAACUCACAUUUUCUUUAAAGCUAUCACACUUUGUCUUCUUAUCCCCUGCUUCCUGUUCCUUCAGCCUCCCUUCCCUUUCCUUCCUGGAUCUCUGAUUAUCUUGUGAUUGGAAUUCUCGGGUGCCAA` — result for “RBNS enrichment (R)”: 1.23.
For `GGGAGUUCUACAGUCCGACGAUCGAGGGGGCAGGCUCAGCCAGCCCUUGGAGGCUCAGAGCAGCUGGCCCAGGCUCCAGCUCGCCUCCAGUGGAAGCCCGAGCGCCCUCAGAAACGACCCUGGCCAAUGUCAAUGGAAUUCUCGGGUGCCAA`, “RBNS enrichment (R)” read 0.354.
Under “RBNS enrichment (R)”, `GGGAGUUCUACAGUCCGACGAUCCCCUGCCUAGCUUAAAGUAUAGUCAUGAGAUGGAGUUGGGAGCACUAUACUGGUCACUUACCACCUGGGGCCUCAGUUUCCUGAUCUGCGAAAGGGGCAAGGGCUAAGGCUGGAAUUCUCGGGUGCCAA` is recorded as 0.361.

Study 2
Target: Ras GTPase-activating protein-binding protein 1, full length (G3BP1, Homo sapiens, UniProt Q13283)
UniProt Q13283, sequence (whole entry, looked up): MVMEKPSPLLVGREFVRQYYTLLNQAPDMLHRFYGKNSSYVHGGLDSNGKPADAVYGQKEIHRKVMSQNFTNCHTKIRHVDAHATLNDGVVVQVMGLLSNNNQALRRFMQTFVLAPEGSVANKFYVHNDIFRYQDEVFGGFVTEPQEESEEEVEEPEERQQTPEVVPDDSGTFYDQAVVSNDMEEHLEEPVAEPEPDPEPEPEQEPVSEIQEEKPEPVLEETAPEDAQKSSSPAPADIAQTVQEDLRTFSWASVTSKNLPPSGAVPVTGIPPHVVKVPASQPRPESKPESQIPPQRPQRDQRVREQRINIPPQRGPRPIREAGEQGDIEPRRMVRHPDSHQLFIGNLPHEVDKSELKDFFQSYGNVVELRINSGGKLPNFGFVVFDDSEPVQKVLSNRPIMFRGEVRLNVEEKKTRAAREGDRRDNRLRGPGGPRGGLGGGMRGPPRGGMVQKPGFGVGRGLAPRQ
Method: RNA Bind-n-Seq
Molecule type: RNA
Medium: in vitro
Tested at: 200 nM
Setting: whole 134-nt RNA, ends assumed
Together with: 150 mM KCl
Relative to: input library
Reading: higher = stronger binding
For `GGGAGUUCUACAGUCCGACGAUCCCUCAAGUCCUGUGCUACACAUCGUAUGUACCGAAUCGGAGGAAAAAGGAGGAAAGUAUUAUGUUACGCCGUUCGGAUCUGCACUUCCAGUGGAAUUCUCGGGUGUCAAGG`, the log2 enrichment was 0.0323.
`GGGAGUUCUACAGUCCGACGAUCUCAAGUCCUGUGCUACACAUCGUAUGUACCGAAUCGGGGUUGGGUUGGGGUUGGAAAGUAUUAUGUUACGCCGUUCGGAUCUGCACUUCCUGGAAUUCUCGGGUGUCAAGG` has a log2 enrichment of 0.237.
`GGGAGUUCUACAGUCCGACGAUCGUCCUGUGCUACACAUCGUAUGUACCGAAUCGGCCCCCCGGCCCCCCGGGCCCCCCGGGAAAGUAUUAUGUUACGCCGUUCGGAUCUGCAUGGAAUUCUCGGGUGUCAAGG` has a log2 enrichment of -0.25.
With `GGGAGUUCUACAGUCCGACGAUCUGGGAGGUGGAUUUUGUUUAUUUUUUUAGCUCAUUUACAGGGGUGGGAAUUUUUUUUUAAUAUGUGUCAUGAAUAAAGUUGUUUUUGAAAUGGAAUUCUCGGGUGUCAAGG` the log2 enrichment was 0.0198.
`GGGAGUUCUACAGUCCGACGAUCUCCUCAAGUCCUGUGCUACACAUCGUAUGUACCGAAUCGGUGGUGGGUGGGAAAGUAUUAUGUUACGCCGUUCGGAUCUGCACUUCCAGCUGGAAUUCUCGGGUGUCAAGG` has a log2 enrichment of 0.0819.
`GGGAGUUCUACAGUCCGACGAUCUCAAGUCCUGUGCUACACAUCGUAUGUACCGAAUCGGGUGGGUUUGGGUUUGGGAAAGUAUUAUGUUACGCCGUUCGGAUCUGCACUUCCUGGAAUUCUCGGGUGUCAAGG` has a log2 enrichment of 0.882.
`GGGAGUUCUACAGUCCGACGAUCUGUACUGAUGACAGCUAAUCUCUGAAUCUUUUUCCUCCAGGAUGUUCCUUCAGGAGGAAGCAGCACUAAAAGCACUCUGAGUCAAGAUGAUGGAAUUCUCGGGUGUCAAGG` has a log2 enrichment of -0.927.
`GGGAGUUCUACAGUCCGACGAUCCUCAAGUCCUGUGCUACACAUCGUAUGUACCGAAUCGGAAGGGAAGGGAAGGGAAAGUAUUAUGUUACGCCGUUCGGAUCUGCACUUCCAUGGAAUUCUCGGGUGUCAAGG` gave a log2 enrichment of 0.522.
For `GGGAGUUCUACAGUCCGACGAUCUGGCCCUGGUGGCAUGCGGGGGGGAAGAGGUGGCCUCAUGGAUCGUGGUGGUCCCGGUGGAAUGUUCAGAGGUGGCCGUGGUGGAGACAGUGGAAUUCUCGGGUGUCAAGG`, the log2 enrichment was 0.581.

Study 3
Target: Interferon regulatory factor 5, full length, phosphomimetic (IRF5, Homo sapiens, UniProt Q13568-2, residues 1-514, S451D/S453D/S456D/S462D)
Method: protein-binding microarray
Molecule type: double-stranded DNA, one strand shown
Medium: in vitro
Tested at: 940 nM top
Setting: 60-bp whole probe
Together with: salmon DNA 0.4 mg/ml
Relative to: random background probes
Reading: higher = stronger binding
Shared flanks, not repeated: GCCTAGCAC … GTCTTGATTCGCTTGACGCTGCTG
`TTAGAACTGGGGTATGGATTAGTGCTA` — result for “fitted relative affinity”: 0.115 z-score.
Under “fitted relative affinity”, `TTAGATTCCAGACTGGATTAGTGCTAG` is recorded as -0.556 z-score.
For `TTAAGTCTCGGTCTCGGTTAGTGCTAG`, “fitted relative affinity” read 7.31 z-score.
`GACCATATCGGGTTTCGAGACGTGCTA`: “fitted relative affinity” 1.63 z-score.
`GACGGACTGGACTTTCGGAACGTGCTA` — result for “fitted relative affinity”: 0.616 z-score.
`CCCCCTTTTATATTGTAAGCGTGCTAG`: “fitted relative affinity” 0.471 z-score.
`TTAAATTTCAGTCTCGATTAGTGCTAG` — result for “fitted relative affinity”: 4.38 z-score.
For `GACGATTTCCTTATCCTGACGTGCTAG`, “fitted relative affinity” read 0.67 z-score.
Under “fitted relative affinity”, `CTTTAGAGCAAGAACAGCCTGTGCTAG` is recorded as -0.791 z-score.
`TTTCATTTTTTTTCATCATTGTGCTAG`: “fitted relative affinity” 6.04 z-score.
For `GACGATGTCAGTTCCGAGACGTGCTAG`, “fitted relative affinity” read 0.0479 z-score.
`TTAGATCTCAGTCTCGGTTAGTGCTAG`: “fitted relative affinity” 3.86 z-score.
`TTTGGTTTCGGGTTTCGGTTAGTGCTA`: “fitted relative affinity” 13.8 z-score.
For `TGGTTTTACTTTCTATCTCTGTGCTAG`, “fitted relative affinity” read 3.67 z-score.
For `TTAGATTTCGGTACTGGATTAGTGCTA`, “fitted relative affinity” read 2.11 z-score.
`TTAGGACTGGGTCTCGGATAGTGCTAG`: “fitted relative affinity” 0.106 z-score.
For `TTAGCACTGCTTCTCCTTTAGTGCTAG`, “fitted relative affinity” read 0.0188 z-score.
Under “fitted relative affinity”, `TTATATTTCGGGACTGGATTAGTGCTA` is recorded as 0.482 z-score.
For `TCATCTGTGCCTTTTTTACTGTGCTAG`, “fitted relative affinity” read 0.517 z-score.

Study 4
Target: Histone acetyltransferase KAT6A, winged helix 1, GST fusion (KAT6A, Homo sapiens, UniProt Q92794, residues 1-85)
Method: protein binding microarray
Molecule type: double-stranded DNA, one strand shown
Medium: in vitro
Tested at: not given
Setting: 8-mer, flanks averaged, mean of 2 arrays, mostly near background
Relative to: not given
Reading: higher = stronger binding
Target sequence (chain): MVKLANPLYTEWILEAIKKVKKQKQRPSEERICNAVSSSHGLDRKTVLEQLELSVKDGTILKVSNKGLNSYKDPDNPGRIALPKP
With `CGAGAAGC` the E-score was 0.143.
`AGCACTGG` gave an E-score of -0.172.
For `CGTGATTC`, the E-score was 0.0478.
With `CCGCGCCA` the E-score was 0.307.
The E-score of `AAGACGCT` is reported as 0.0527.
`GGACACGA` has an E-score of 0.0799.
For `CTATGTCC`, the E-score was -0.0444.
`CATGACCA` has an E-score of -0.224.
`AAATGCTT` gave an E-score of -0.0832.
With `CTGGGAAG` the E-score was -0.116.
The E-score of `CATGTCGC` is reported as 0.164.
`CGCAGGAC` has an E-score of 0.159.
With `CAACGCGG` the E-score was 0.348.
The E-score of `CACGGTCG` is reported as 0.196.
`CAGTGTGA` gave an E-score of -0.236.
The E-score of `ATTTATAC` is reported as 0.0239.
`CCACGGAG` has an E-score of 0.129.
The E-score of `GGGCCTGA` is reported as 0.0187.
`CTAGGATA` gave an E-score of 0.0351.

Excerpt of the above (study 3):
For `TTAAGTCTCGGTCTCGGTTAGTGCTAG`, “fitted relative affinity” read 7.31 z-score.
`GACCATATCGGGTTTCGAGACGTGCTA`: “fitted relative affinity” 1.63 z-score.
`GACGGACTGGACTTTCGGAACGTGCTA` — result for “fitted relative affinity”: 0.616 z-score.
`CCCCCTTTTATATTGTAAGCGTGCTAG`: “fitted relative affinity” 0.471 z-score.
`TTAAATTTCAGTCTCGATTAGTGCTAG` — result for “fitted relative affinity”: 4.38 z-score.
For `GACGATTTCCTTATCCTGACGTGCTAG`, “fitted relative affinity” read 0.67 z-score.
Under “fitted relative affinity”, `CTTTAGAGCAAGAACAGCCTGTGCTAG` is recorded as -0.791 z-score.
`TTTCATTTTTTTTCATCATTGTGCTAG`: “fitted relative affinity” 6.04 z-score.
For `GACGATGTCAGTTCCGAGACGTGCTAG`, “fitted relative affinity” read 0.0479 z-score.
